# Assay results pooled from the literature.
# A part holds a random share of what one study measured. Positions count from the first letter of the parent shown.

# Sample 1
# Target: RNA binding protein fox-1 homolog 2, RRM domain, GST-SBP tag (RBFOX2, Homo sapiens, UniProt O43251-10, residues 100-194)
# Method: RNA Bind-n-Seq
# Form: RNA
# Medium: in vitro
# Tested at: 365 nM
# Notes: natural RNA segment, single round, ends assumed
# Reference: no-protein control
# Reading: higher = stronger binding
# Shared flanks, not repeated: GGGAGUUCUACAGUCCGACGAUC … UGGAAUUCUCGGGUGCCAA
# Residues (chain): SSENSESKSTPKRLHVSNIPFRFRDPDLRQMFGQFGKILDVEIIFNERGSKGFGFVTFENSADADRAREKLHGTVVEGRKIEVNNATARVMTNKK
Oligonucleotide,RBNS enrichment (R)
CUGUCUUUCAUGGCUGAAAACAAAAGUAAUGGGAAUUUUAAAUACGUUUGCAGAAACUGCCCCUCCCCUCAUUGAGGGUCACUGCUCAAGAGUGCAGGAGUGGACUCUCC,0.478
CCAUUCUGUGCAGGCUGCAGUGGCUCCCCUGCCCAGCCUGCUCUCCCUAACCCCUUGUCCGCAAGGGGUGAUGGCCGGCUGGUUGUGGGCACUGGCGGUCAAGUGUGGAG,0.236
CAUAUGUUGUGUUUGGUUCAAUUUUUUUUCCGUAAAUGUCUGCACUGAGGAUUUCUUUUUGGUUUGCCUUUUAUGUAAAUUUUUUACGUAGCUAUUUUUAUACACUGUAA,1.02
UUUAUCAUUCUGAAUUGUAUUAUAUAUUUAAAGUGCUCAUUAAUAGAAUGAUGGAUGUAAAUUGGAUGUAAAUAUUCAGUUUAUAUAAUUAUAUCUAAUUUGUACCCUUG,0.579
UACUGAUUAUUAAGCAGGACAGACUGAGCUUUCUGUUGCAAAUACCUUGGAGGAGAAAGUAAUUUCUAAAUAUACAGAGAGGUAACUUGACUAUAUAUGUUGCAUCCUGU,0.309
GAGCAGACAGCAAGAAUGAAAAGCAGAAAAUACAAUAGAGGAAAUGAAGAAAAGUAGGCCUGCUGGAGCUAGAUGAUGAUGUGAUGGAAAUAGAAGUAACCUUUUAGAGA,4.42
CCUUCUUACUCACACACAAAAUGUACCCAGUAUUCUAGGUAGUGCCCUAUUUUACAAUUGUAAAACUGAGGCACGAGCAAAGUGAAGACACUGGCUCAUAUUCCUGCAGC,0.564
UAAGUGCCCUGAGGCGCUCUGUACUAGAAACUGCUCUUAAUAAUAACGGUGAUUAUUGGUUGCUGCAUUGCUGUUGUAUGGCUCUUGAGUCUUCCUGAGUUUGUGUCCAG,15.1
GGCUCUCUGAGGGCAACCAGGCCUUGUGUCCUGGUACCUGUGACACUGUUGUGGUCACAGCAGUGCCCUUGGACAGGGCAUUAAGGCUGACCCUGAAGGAGUGGUGCUGC,0.318
UGAAGUGAGUUAAUGAGCCUUCAUUAUUUUAAUGCUUAGUGUUUCAGUUUUAUAAGUGAAAAUUUUAUUUUAAAAAACAGUGGUUUUUUUUUUUGGGUAUGUCUGGAUCA,0.754
UCUGUAACCAACCUUUAUCUGGCAUCAUAAUUGCAGCACAAUAAUGAUUUGCAUGAUAUCUUGAAACUGGGGGAAGGGGGCAUGCCAAGUUGGGCAUCACUUCGUCUUAG,1.01
GAAACACCUGCCACUCUAGAUAGUUAGUGUGAGGGAUCCAGGCUUGUGUGAGGGGAAUAAUGUGGAAAGCUGAGGUCUAAUUGUGGUGACGUUAGCUGUCCCAGGCCACA,0.757

# Sample 2
# Target: Prothrombin, mature alpha-thrombin (F2, Homo sapiens, UniProt P00734)
# Method: aptamer microarray, sandwich
# Form: DNA with 2'F-ANA
# Medium: in vitro
# Tested at: 200 nM
# Notes: whole 15-mer aptamer, many near background
# Together with: Cy3 exosite-II aptamer, 400 nM
# Reading: higher = stronger binding
# Oligonucleotide: GGTTGGTGTGGTTGG
Modification,mean fluorescence intensity [a.u.]
2'F-ANA at 4 6 7 10 12 14 15,59.3
2'F-ANA at 3 4 6 7 8 11 12 13 15,570
2'F-ANA at 1 4 5 6 8 9 10,47.1
2'F-ANA at 2 3 4 7 8,881
2'F-ANA at 3 9 10 12,632
2'F-ANA at 2 3 4 5 7 9 10 12 13 15,56
2'F-ANA at 1 4 5 8 11 13,49.7
2'F-ANA at 2 3 5 6 11 13 14 15,50.1
2'F-ANA at 4 9 11,300
2'F-ANA at 3 4 5 7 13 15,59.2
2'F-ANA at 1 4 5 6 8 11 14 15,51.4
2'F-ANA at 2 4 5 12 13,118
2'F-ANA at 6 10 11,165
2'F-ANA at 2 3 7 8 9 10 11 14,268
2'F-ANA at 1 2 6 8 11 13,117
2'F-ANA at 1 4 8 11 15,119
2'F-ANA at 2 5 13 14 15,43.9
2'F-ANA at 4 5 7 8 11 12 15,124
2'F-ANA at 1 3 7 8 10 12 14,61.5

# Sample 3
# Target: Ras GTPase-activating protein-binding protein 1, full length (G3BP1, Homo sapiens, UniProt Q13283)
# Chain of UniProt Q13283 (whole entry, looked up): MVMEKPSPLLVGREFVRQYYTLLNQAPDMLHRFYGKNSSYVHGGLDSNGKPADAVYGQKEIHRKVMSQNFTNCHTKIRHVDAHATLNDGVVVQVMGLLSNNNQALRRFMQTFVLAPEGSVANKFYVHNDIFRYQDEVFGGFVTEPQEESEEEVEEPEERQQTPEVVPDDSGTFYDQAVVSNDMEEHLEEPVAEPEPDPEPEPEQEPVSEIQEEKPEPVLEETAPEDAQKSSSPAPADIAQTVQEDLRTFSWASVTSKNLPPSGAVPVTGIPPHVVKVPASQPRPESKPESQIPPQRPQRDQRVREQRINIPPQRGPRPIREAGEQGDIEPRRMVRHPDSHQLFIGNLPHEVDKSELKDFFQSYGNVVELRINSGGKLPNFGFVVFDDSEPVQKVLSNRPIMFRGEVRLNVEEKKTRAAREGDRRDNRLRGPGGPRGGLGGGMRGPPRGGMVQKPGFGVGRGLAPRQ
# Method: RNA Bind-n-Seq
# Form: RNA
# Medium: in vitro
# Tested at: 200 nM
# Notes: whole 134-nt RNA, ends assumed
# Together with: 150 mM KCl
# Reference: input library
# Reading: higher = stronger binding
# Shared flanks, not repeated: GGGAGUUCUACAGUCCGACGAUC … UGGAAUUCUCGGGUGUCAAGG
Oligonucleotide,log2 enrichment
CACAGACAACACGCACCCACACAGACACAGAGGGAAGGGGUUGGGAAGGGGACAGGGUGCACAGCAGGGCGGGGUAGGACCCCAGCCCCU,1.76
UUUUUCCAGAGCUCACAACGACCUGGGGCUGAGGACAAUGUCCUCAAUGAGAUCGUGAGUAUCUUGCAGCCCACCCAGGUCCCUGAGCAG,-1.25
GUCCUGUGCUACACAUCGUAUGUACCGAAUCGGGGUUUUUGGGGAAAGGGGAAAGGGGAAAGUAUUAUGUUACGCCGUUCGGAUCUGCAC,0.624
GUCCUGUGCUACACAUCGUAUGUACCGAAUCGGGGUGGGGUUUGGGGAAAAAAAGGGGAAAGUAUUAUGUUACGCCGUUCGGAUCUGCAC,0.415
UGGGAGGUGGAUUUUGUUUAUUUUUUUAGCUCAUUUCCAGGGGUGGAAAUUUUUUUUUAAUAUGUGUCAUGAAUAAAGUUGUUUUUGAAA,0.0213
CAAGUCCUGUGCUACACAUCGUAUGUACCGAAUCGGUUUUUGGAAAAAGGAAAGGAAAGUAUUAUGUUACGCCGUUCGGAUCUGCACUUC,-0.935
CAAGUCCUGUGCUACACAUCGUAUGUACCGAAUCGGGGUUGGGGUUGGGUUGGGGAAAGUAUUAUGUUACGCCGUUCGGAUCUGCACUUC,1.04
CCUGUGCUACACAUCGUAUGUACCGAAUCGGGGUUUUUUUGGGGUUUGGGGAAAAAGGGGAAAGUAUUAUGUUACGCCGUUCGGAUCUGC,0.0822
CUGUGCUACACAUCGUAUGUACCGAAUCGGGGAAAAAAAGGGAAAAAAAGGGAAAAAAAGGAAAGUAUUAUGUUACGCCGUUCGGAUCUG,-0.664
AAGUCCUGUGCUACACAUCGUAUGUACCGAAUCAAACCCCCAAACCCAAAUUUAAAAAAGUAUUAUGUUACGCCGUUCGGAUCUGCACUU,-0.184
UCUAUUCAUAAGAACCCCAACACAUCGGAGCCCCAACACCUGUUGGUGAUGAAGGGCGCCCCAGAAAGGAUCCUAGACCGUUGCAGCUCU,-0.21
UAACUUUAGAGGAGGAUCUGAUGGAUAAGGCAGUGGACGUGGAUUUGGGGAUGGCUAUAAUGGGUAUGGAGGAGGACCUGGAGGUGGCAA,0.182
UCAAGUCCUGUGCUACACAUCGUAUGUACCGAAUCGGGGAAGGAAGGGGAAGGGAAAGUAUUAUGUUACGCCGUUCGGAUCUGCACUUCC,0.882
CCUGUGCUACACAUCGUAUGUACCGAAUCGGGGAAAAAAAGGGGAAAGGGGUUUUUGGGGAAAGUAUUAUGUUACGCCGUUCGGAUCUGC,0.347

# Sample 4
# Target: CCNA2, cyclin fold, Cln2 fusion (human)
# Method: yeast growth competition, sequencing
# Medium: yeast
# Notes: strong parent motif
# Reference: not given
# Reading: higher = stronger binding
# Parent: WEE1 docking peptide (human); HKTFRKLRLFDTP
Substitution,normalised enrichment score
HKTFRKLRLFLTP [D11L],1.98
HKTFRKLRLFDTN [P13N],2.19
HKTFRKLHLFDTP [R8H],1.45
HKTFRKLRYFDTP [L9Y],2.39
HKTFRKLRLFDTF [P13F],0.873
HKTFRKLRWFDTP [L9W],1.7
HKTFRKYRLFDTP [L7Y],0.935
HKTERKLRLFDTP [F4E],0.741
HKTFDKLRLFDTP [R5D],1.32
HKTFRKLWLFDTP [R8W],2.87
HKTFRKLRLFDSP [T12S],2.03
HKTFRKLRLFDEP [T12E],1.66
HNTFRKLRLFDTP [K2N],1.78
HKTFRKLRLFRTP [D11R],0.989
HKTFRKLRLMDTP [F10M],1.54
HKTFRKLMLFDTP [R8M],1.39
HITFRKLRLFDTP [K2I],0.952
HKTFRTLRLFDTP [K6T],0.72
TKTFRKLRLFDTP [H1T],1.64
HKTNRKLRLFDTP [F4N],1.83
HKTFRPLRLFDTP [K6P],2.98
HMTFRKLRLFDTP [K2M],1.33
HKTFRKLRLFDTL [P13L],1.74
HATFRKLRLFDTP [K2A],1.41
HKTGRKLRLFDTP [F4G],1.77

# Sample 5
# Target: Sal-like protein 4, full length isoform A (SALL4, Homo sapiens, UniProt Q9UJQ4, residues 1-1053)
# Chain of UniProt Q9UJQ4 (whole entry, looked up): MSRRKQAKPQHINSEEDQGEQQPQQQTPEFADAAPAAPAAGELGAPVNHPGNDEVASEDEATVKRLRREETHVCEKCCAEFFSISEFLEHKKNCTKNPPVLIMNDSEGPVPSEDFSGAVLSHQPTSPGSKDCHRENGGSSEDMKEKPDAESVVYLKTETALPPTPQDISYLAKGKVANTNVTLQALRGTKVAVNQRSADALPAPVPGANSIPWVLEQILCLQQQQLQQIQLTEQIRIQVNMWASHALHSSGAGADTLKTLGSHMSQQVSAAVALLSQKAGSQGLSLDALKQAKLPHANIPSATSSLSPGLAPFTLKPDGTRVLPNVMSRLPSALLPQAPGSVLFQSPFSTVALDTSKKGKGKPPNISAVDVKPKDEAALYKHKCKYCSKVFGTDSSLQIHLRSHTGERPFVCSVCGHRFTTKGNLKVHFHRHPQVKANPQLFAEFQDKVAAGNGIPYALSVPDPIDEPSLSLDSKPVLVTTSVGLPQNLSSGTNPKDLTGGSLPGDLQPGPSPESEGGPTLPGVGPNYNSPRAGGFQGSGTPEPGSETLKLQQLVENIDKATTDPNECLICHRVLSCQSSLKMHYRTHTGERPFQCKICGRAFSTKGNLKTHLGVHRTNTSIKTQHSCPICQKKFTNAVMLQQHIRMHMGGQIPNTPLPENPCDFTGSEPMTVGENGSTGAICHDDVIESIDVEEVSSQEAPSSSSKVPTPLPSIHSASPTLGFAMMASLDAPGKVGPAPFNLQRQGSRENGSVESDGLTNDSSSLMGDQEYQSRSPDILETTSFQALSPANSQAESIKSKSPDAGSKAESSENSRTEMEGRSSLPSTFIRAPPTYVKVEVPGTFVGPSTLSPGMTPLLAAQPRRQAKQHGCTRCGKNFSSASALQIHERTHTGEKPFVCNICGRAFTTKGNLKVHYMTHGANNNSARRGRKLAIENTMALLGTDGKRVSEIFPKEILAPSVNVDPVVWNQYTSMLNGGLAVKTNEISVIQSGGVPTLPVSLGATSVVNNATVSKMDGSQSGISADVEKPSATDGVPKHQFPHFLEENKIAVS
# Method: universal PBM
# Form: double-stranded DNA, one strand shown
# Medium: in vitro
# Tested at: 600 nM
# Notes: 8-mer, flanks averaged, mean of replicates
# Reading: higher = stronger binding
Oligonucleotide,E-score
ACACCCCC,-0.236
CGCGCTGA,-0.334
CATGCATA,0.226
CTCTCCTC,-0.17
ACGAACGG,0.00316
ACGCCGTC,-0.208
AATACATT,0.299
AAGCTCGC,-0.291
ATGCTTGA,0.0994
AACTAGAC,0.175
TAAGGTAA,0.185
ACAGCCGA,-0.153
AGGTATCA,0.081
GCGGCCAA,-0.286
AGACTAAG,0.0124
CGTAGAAC,-0.158
ATATCAGA,0.284
AAGGTGGC,-0.261
CTTAACGA,0.05
ATTGGCTA,-0.00043
AATATCAC,0.339
ACGCCACG,-0.247
CCGGGGAG,-0.33
AGCTGGTG,-0.312

# Sample 6
# Target: PABPC1L2, full length, GST fusion (mouse, UniProt A0ABA7IW68)
# Method: RNAcompete
# Form: RNA
# Medium: in vitro
# Tested at: 20 nM
# Notes: 7-mer, probes averaged, single round
# Reference: mean of 7-mers
# Reading: higher = stronger binding
Oligonucleotide,7-mer Z-score
UGGUAGU,-0.32
AUGCCAC,-0.11
GAUCUAC,-0.224
GGGUAGC,0.1
ACUUAUG,-0.188
CCAACUA,-0.182
UGGGUAG,-0.0718
GAAAACA,6.01
GUGCCGU,-0.255
GUAUCUA,-0.18
UAGAGUG,-0.155
AAAAAGA,22.6
AGCUGAG,0.00979
UAAAUUG,1.46
UGAUUCC,-0.164
GUGCCGG,-0.106
GAUGCAC,-0.224
GGACGUC,-0.0554

# Sample 7
# Target: CREM, bZIP domain (human)
# Method: DHFR protein complementation
# Medium: yeast
# Notes: single substitutions, most at no-binding floor
# Reference: wild-type JUN-FOS pair
# Reading: higher = stronger binding
# Parent: JUN, bZIP domain (human); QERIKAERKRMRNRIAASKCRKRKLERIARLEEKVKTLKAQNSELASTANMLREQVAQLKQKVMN; partner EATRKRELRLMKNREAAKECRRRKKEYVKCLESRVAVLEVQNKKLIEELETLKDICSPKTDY
Substitution,binding fitness [natural log]
A46E,-1.26
S43K,-1.41
R30K,-1.5
E33K,-0.995
S47V,-1.47
T48M,-1.36
T48G,-1.51
L59G,-1.15
R53W,-1.44
A46Q,-1.33
L38S,-1.45
L31E,-1.61
A49H,-1.46
L31Y,-1.54
V35A,-1.36
L45C,-1.5
V56W,-1.47
I28Q,-1.29
Q41R,-1.36

# Repeated from above (sample 4):
Substitution,normalised enrichment score
HMTFRKLRLFDTP [K2M],1.33
TKTFRKLRLFDTP [H1T],1.64
HKTFRKLRLFDTF [P13F],0.873
HKTFRKLRLMDTP [F10M],1.54
HATFRKLRLFDTP [K2A],1.41
HKTFRKLRLFDEP [T12E],1.66
HKTFRKLHLFDTP [R8H],1.45
